Results of several laboratories.
Parts stem from different laboratories: compare values within a part only. Changes are numbered by the printed parent chain.

Sample 1
Target: Prothrombin, mature alpha-thrombin (F2, Homo sapiens, UniProt P00734)
Method: aptamer microarray, sandwich
Form: DNA with 2'F-ANA
Sample: in vitro
Tested at: 200 nM
Setting: whole 15-mer aptamer, many near background
Together with: Cy3 exosite-II aptamer, 400 nM
Reading: higher = stronger binding
Strand: GGTTGGTGTGGTTGG
For `2'F-ANA at 1 2 3 4 5 7 8 11 13 15`, “mean fluorescence intensity” read 72 a.u.
For `2'F-ANA at 2 4 5 6 7 9 10 14 15`, “mean fluorescence intensity” read 47.3 a.u.
`2'F-ANA at 1 2 4 6 10 11 12 15` — result for “mean fluorescence intensity”: 53.8 a.u.
For `2'F-ANA at 1 7 9 11 12 13 15`, “mean fluorescence intensity” read 226 a.u.
`2'F-ANA at 2 3 5 7 8 9 13 15` — result for “mean fluorescence intensity”: 76 a.u.

Sample 2
Target: CCNB2, cyclin fold, Cln2 fusion (human)
Method: yeast growth competition, sequencing
Sample: yeast
Setting: weak parent motif
Reference: not given
Reading: higher = stronger binding
Starting sequence: RBL2 docking peptide (human); STTRRRLFVENDS; partner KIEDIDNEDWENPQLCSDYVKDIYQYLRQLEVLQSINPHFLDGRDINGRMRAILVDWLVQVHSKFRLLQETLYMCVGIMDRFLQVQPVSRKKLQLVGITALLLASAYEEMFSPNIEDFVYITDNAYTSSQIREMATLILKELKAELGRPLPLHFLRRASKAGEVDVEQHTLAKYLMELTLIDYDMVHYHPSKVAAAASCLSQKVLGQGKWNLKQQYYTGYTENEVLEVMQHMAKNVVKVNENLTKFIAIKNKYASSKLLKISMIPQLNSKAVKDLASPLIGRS
`T2Q` — result for “normalised enrichment score”: 0.114.
`S13N` — result for “normalised enrichment score”: -0.0318.
`S1K`: “normalised enrichment score” 0.0983.

Sample 3
Target: Interferon regulatory factor 5, full length, phosphomimetic (IRF5, Homo sapiens, UniProt Q13568-2, residues 1-514, S451D/S453D/S456D/S462D)
Method: protein-binding microarray
Form: double-stranded DNA, one strand shown
Sample: in vitro
Tested at: 940 nM top
Setting: 60-bp whole probe
Together with: salmon DNA 0.4 mg/ml
Reference: random background probes
Reading: higher = stronger binding
Shared flanks, not repeated: GCCTAGCAC … GTCTTGATTCGCTTGACGCTGCTG
`TCAACTTTCCACTTGTCACTGTGCTAG` — result for “fitted relative affinity”: 1.29 z-score.
For `GTCGGTATCGGTCTCGGGACGTGCTAG`, “fitted relative affinity” read 11.5 z-score.
`TTAGGTTTCGACACTGGGTTTGTGCTA` — result for “fitted relative affinity”: 8.43 z-score.
Under “fitted relative affinity”, `TTAGATTTCGGGTTTCGAATAGTGCTA` is recorded as 2.32 z-score.
`GACGAACTGGGATTTCGAGACGTGCTA`: “fitted relative affinity” -0.289 z-score.

Mixed results
For `PhoQ, residues 284 288 289 292 302 303 AGCYAI`, the fold induction was 18.5 (PhoP, residues 12 14 15 18 19 LWHCS (Escherichia coli, UniProt P23836); Sort-seq, item: YFP reporter; E. coli; PhoQ-PhoP variant library, together with: 10 µM Mg2+; reference: high Mg2+ state, higher = stronger signaling).
